Results from different studies.
Every numbered part comes from another study and shows a few of its results, in no order.
Chain of UniProt O15146 (whole entry, looked up): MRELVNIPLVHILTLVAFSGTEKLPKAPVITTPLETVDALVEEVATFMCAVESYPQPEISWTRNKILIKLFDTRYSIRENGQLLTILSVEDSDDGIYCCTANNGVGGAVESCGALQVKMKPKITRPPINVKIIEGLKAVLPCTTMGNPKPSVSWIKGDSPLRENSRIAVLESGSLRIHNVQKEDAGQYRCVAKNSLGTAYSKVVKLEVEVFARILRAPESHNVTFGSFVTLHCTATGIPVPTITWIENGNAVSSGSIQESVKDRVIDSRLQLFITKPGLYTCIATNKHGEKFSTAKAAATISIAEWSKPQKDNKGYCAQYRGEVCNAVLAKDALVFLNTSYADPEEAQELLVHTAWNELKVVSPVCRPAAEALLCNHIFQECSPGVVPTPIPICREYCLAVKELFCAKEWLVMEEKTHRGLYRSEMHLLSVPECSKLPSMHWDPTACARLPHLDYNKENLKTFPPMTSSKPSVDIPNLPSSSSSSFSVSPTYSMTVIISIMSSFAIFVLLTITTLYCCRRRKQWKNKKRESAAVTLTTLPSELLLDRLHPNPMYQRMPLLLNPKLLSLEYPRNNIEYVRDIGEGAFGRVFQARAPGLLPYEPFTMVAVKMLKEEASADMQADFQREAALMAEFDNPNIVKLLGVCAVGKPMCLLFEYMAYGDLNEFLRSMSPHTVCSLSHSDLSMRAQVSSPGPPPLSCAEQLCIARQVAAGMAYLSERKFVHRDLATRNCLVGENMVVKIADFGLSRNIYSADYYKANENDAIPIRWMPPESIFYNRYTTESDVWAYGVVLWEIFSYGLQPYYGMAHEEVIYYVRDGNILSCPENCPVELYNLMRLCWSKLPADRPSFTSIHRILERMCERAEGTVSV
Chain of UniProt Q13164 (whole entry, looked up): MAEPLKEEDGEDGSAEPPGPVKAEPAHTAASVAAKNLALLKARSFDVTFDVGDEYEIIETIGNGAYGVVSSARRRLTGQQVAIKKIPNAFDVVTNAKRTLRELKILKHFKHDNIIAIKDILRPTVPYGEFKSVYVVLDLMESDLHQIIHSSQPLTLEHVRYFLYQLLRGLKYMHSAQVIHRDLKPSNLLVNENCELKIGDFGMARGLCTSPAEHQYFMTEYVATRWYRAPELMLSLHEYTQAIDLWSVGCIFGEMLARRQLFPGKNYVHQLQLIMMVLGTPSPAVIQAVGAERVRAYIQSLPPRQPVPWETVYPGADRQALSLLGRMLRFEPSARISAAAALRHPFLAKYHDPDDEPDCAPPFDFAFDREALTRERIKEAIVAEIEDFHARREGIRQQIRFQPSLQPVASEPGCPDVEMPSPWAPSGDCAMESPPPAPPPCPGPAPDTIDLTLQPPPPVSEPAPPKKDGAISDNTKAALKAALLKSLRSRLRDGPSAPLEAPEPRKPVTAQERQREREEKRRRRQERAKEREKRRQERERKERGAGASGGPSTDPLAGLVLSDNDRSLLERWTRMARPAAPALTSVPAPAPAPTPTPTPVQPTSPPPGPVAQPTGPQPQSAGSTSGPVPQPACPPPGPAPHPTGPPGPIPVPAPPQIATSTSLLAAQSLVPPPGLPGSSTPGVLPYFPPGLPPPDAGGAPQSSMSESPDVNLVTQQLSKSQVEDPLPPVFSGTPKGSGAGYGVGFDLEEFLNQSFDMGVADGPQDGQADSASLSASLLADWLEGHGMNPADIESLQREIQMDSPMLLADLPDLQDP
Chain of UniProt P53778 (whole entry, looked up): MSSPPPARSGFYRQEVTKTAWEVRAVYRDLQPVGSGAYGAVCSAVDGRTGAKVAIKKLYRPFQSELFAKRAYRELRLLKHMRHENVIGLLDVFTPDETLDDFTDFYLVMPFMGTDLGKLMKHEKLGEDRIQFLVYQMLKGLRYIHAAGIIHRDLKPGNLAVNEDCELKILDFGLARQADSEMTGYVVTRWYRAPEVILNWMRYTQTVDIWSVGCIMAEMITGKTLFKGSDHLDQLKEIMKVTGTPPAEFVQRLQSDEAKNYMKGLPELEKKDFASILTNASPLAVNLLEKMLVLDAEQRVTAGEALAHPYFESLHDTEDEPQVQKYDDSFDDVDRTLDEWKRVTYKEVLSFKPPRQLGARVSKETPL

Set 1
Species: human
Medium: microsomes or S9
Tested at: 2 µM
Time: 0.5 h
SMILES	remaining compound [%]
COc1ccc2[nH]cc(CCNC(=O)CCC(=O)N3Cc4cccn4-c4ccccc43)c2c1	2.04
Cc1nn(C)cc1Nc1nnc(Cn2nc(C(F)(F)F)c(Cl)c2C)s1	58.9
COc1cc(CN2CCN(S(=O)(=O)c3ccc(NC(C)=O)cc3)CC2)cc(OC)c1OC	78.9
CC(C)(C)C1CCc2onc(C(=O)NCCCOc3ccccc3F)c2C1 (stereo not shown)	95
CC1=NN(c2ccc3nncn3n2)C(=N)C1C(O)C(F)(F)F (stereo not shown)	85.5
Nc1c(Br)cc(Br)cc1C(=O)NC1CCCCC1	35.9
Cc1nc[nH]c1-c1nccn1[C@H]1CCc2ccccc21	78.1
O=C(Nc1ccc2nc(N3CCN(c4ccccc4)CC3)cc(C(=O)O)c2c1)c1ccccc1F	84.5
Cc1cc(C)cc(N(C)S(=O)(=O)c2cn(C)c(=O)[nH]c2=O)c1	90.9
CCCc1cc(C(=O)N(C)CC2Cc3ccccc3CN2C)[nH]n1 (stereo not shown)	49.9

Set 2
Structure (SMILES): CO[C@@H](C)c1c(Nc2ccc([C@H](N(C)C(=O)C3CCS(=O)(=O)CC3)C(F)(F)F)cc2)cnc2cc(Cl)nn12
Method: competition with immobilised ligand
Tested at: 1 µM
target	effect on	remaining binding [%]
MAPK12 (Homo sapiens, UniProt P53778)	cell-free assay	98
Tyrosine-protein kinase ABL1, non-phosphorylated (ABL1, Homo sapiens, UniProt P00519)	cell-free assay	63
SGK1 (Homo sapiens, UniProt O00141)	cell-free assay	94
RIPK4 (Homo sapiens, UniProt P57078)	cell-free assay	76
MAPK7 (Homo sapiens, UniProt Q13164)	cell-free assay	92
PIK3CA (Homo sapiens, UniProt P42336)	cell-free assay	94
DCLK2 (Homo sapiens, UniProt Q8N568)	cell-free assay	90
CSNK2A1 (Homo sapiens, UniProt P68400)	cell-free assay	100
IRAK3 (Homo sapiens, UniProt Q9Y616)	cell-free assay	68
IKBKB (Homo sapiens, UniProt O14920)	cell-free assay	100
FLT3 (Homo sapiens, UniProt P36888, N841I)	binding	23
MUSK (Homo sapiens, UniProt O15146)	cell-free assay	83
EGFR (Homo sapiens, UniProt P00533, del747-750/T751S)	cell-free assay	100
CSNK1A1L (Homo sapiens, UniProt Q8N752)	cell-free assay	65
HIPK2 (Homo sapiens, UniProt Q9H2X6)	cell-free assay	100

Set 3
Target: Calcium/calmodulin-dependent protein kinase type II subunit alpha (CAMK2A, Homo sapiens, UniProt Q9UQM7)
Chain of UniProt Q9UQM7 (whole entry, looked up): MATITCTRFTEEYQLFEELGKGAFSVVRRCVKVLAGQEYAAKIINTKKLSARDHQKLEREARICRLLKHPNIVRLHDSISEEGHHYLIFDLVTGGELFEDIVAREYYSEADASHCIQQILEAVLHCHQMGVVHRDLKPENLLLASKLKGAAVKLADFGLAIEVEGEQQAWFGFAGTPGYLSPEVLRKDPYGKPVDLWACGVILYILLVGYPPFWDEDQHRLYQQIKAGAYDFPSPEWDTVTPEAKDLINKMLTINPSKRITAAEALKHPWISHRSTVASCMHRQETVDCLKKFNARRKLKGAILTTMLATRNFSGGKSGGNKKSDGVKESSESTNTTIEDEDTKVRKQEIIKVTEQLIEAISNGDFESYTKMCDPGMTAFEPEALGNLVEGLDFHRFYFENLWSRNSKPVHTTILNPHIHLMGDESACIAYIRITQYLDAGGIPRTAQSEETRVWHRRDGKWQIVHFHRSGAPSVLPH
Effect on: enzyme activity
Action: inhibitor
Tested at: 10 µM
SMILES	inhibition [%]
CC(=O)Oc1ccccc1	-30
C=C(C)[C@H](CC=C(C)C)Cc1c(O)cc(OC)c2c1O[C@H](c1ccc(O)cc1O)CC2=O	-19
COc1cc(/C=C/c2ccccc2)oc(=O)c1	5
CCCCCCCCCCCCC(=O)OC	-13
C/C=C(/C)C(=O)O[C@H]1[C@@H](OC(C)=O)c2c(ccc3ccc(=O)oc23)OC1(C)C (racemic)	0.17
Cc1cc(O)c(C)c2c1O[C@](C)(CCC[C@H](C)CCC[C@H](C)CCCC(C)C)CC2 (relative stereo)	0.03
C[C@@H]1CC[C@]2(C(=O)O)CC[C@]3(C)C(=CC[C@@H]4[C@@]5(C)C[C@@H](O)[C@H](O)C(C)(C)[C@@H]5CC[C@]43C)[C@@H]2[C@]1(C)O	4

Set 4
Target: DNA polymerase theta, ATPase domain (POLQ, Homo sapiens, UniProt O75417)
Chain of UniProt O75417 (whole entry, unmodified, looked up): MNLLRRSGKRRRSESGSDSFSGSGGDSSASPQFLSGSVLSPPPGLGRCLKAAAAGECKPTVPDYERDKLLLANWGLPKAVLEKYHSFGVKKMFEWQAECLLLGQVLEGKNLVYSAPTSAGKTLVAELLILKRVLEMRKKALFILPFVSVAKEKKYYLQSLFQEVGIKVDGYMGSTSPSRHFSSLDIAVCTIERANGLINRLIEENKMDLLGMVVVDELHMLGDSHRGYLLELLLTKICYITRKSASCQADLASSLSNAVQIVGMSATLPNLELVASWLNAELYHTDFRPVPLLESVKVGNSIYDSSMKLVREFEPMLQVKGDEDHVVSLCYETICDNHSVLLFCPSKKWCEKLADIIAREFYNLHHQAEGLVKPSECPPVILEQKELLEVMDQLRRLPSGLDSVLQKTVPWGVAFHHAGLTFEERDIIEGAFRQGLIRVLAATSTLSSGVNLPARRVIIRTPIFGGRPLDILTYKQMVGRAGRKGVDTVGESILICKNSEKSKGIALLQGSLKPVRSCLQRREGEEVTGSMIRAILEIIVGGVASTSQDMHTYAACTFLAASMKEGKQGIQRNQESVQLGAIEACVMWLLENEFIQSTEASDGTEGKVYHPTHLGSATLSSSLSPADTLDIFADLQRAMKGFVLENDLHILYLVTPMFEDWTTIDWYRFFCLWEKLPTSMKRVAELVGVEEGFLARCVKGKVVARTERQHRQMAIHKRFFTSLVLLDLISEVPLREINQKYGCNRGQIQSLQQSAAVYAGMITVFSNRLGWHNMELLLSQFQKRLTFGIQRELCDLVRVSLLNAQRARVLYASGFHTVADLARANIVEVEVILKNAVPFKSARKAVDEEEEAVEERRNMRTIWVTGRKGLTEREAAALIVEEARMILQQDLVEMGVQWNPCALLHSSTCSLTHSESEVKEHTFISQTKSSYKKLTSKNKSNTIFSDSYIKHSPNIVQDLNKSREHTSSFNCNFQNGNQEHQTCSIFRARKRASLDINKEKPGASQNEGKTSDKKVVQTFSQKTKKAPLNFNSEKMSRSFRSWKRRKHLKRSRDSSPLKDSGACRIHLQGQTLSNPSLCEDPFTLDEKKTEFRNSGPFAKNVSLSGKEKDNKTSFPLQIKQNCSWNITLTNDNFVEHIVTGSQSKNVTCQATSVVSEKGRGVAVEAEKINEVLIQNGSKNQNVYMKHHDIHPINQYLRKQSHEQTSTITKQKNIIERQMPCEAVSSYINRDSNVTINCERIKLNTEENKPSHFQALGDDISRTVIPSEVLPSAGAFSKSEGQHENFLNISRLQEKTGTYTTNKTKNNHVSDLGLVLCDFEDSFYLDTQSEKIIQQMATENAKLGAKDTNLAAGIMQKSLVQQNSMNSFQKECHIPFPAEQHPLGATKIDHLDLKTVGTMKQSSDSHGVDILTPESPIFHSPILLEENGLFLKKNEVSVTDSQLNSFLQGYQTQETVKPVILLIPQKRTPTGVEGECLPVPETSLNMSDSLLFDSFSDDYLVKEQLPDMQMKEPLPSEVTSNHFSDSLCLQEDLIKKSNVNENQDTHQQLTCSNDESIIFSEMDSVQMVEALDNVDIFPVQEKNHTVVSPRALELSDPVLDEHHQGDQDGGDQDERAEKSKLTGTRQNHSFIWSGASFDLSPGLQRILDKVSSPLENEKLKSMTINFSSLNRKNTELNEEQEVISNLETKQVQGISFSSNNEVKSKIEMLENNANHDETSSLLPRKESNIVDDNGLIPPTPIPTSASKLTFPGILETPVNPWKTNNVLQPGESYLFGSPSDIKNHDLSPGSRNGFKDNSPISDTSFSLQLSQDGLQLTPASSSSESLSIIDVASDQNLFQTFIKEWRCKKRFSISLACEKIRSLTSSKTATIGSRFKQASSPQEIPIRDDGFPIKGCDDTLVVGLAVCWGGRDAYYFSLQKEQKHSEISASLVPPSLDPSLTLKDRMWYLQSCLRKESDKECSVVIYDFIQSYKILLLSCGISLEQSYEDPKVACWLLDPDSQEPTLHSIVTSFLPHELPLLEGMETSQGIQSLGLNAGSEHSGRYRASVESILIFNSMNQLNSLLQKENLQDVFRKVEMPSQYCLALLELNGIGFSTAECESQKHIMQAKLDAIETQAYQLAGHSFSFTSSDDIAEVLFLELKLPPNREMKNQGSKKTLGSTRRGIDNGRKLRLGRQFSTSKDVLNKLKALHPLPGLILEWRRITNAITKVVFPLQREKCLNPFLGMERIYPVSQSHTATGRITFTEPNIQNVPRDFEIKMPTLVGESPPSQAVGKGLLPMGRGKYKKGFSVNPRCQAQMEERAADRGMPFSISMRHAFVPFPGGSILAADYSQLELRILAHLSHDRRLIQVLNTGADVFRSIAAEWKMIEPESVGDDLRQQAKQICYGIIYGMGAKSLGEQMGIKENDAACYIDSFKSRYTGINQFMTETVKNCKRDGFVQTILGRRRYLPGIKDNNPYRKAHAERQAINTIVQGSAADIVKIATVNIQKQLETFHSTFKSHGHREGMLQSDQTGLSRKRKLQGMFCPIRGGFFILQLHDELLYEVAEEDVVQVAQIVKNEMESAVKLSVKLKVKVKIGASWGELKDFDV
Effect on: enzyme activity
Action: inhibitor
Tested at: 77 µM
Reference: untreated
Structure (SMILES)	remaining activity [%]
COc1ccc(-c2cc(=O)c3c(O)cc(O)cc3o2)cc1	102
CCSc1ccc2c(c1)N(CCCN1CCN(C)CC1)c1ccccc1S2	106
CN(C)CCC[C@@]1(c2ccc(F)cc2)OCc2cc(C#N)ccc21	96.3
Cc1nc(N=Nc2ccc(S(=O)(=O)O)cc2S(=O)(=O)O)c(COP(=O)(O)O)c(C=O)c1O	106
O=C1c2ccccc2-c2nc3nnnn3nc21	62.7
CCc1ccc(/C=C2/SC(=S)NC2=O)cc1	60.8
COc1ncc(-c2ccc3nccc(-c4ccnnc4)c3c2)cc1NS(=O)(=O)c1ccc(F)cc1F	95
O=C(COc1ccc(C(=O)c2ccccc2)cc1)NC1CCN(Cc2ccccc2)CC1	104
CN(C)Cc1ccc(-c2nc3cccc4c3n2CCNC4=O)cc1	97.6
Clc1ccc(C(Cn2ccnc2)OCc2c(Cl)cccc2Cl)c(Cl)c1 (stereo not shown)	102
O=C1Nc2ccccc2/C1=C1/Nc2ccccc2C1=O	89.8

For quick reference, copied from above (set 4):
Structure (SMILES)	remaining activity [%]
CN(C)CCC[C@@]1(c2ccc(F)cc2)OCc2cc(C#N)ccc21	96.3
Cc1nc(N=Nc2ccc(S(=O)(=O)O)cc2S(=O)(=O)O)c(COP(=O)(O)O)c(C=O)c1O	106
O=C1c2ccccc2-c2nc3nnnn3nc21	62.7
CCc1ccc(/C=C2/SC(=S)NC2=O)cc1	60.8
COc1ncc(-c2ccc3nccc(-c4ccnnc4)c3c2)cc1NS(=O)(=O)c1ccc(F)cc1F	95
O=C(COc1ccc(C(=O)c2ccccc2)cc1)NC1CCN(Cc2ccccc2)CC1	104
CN(C)Cc1ccc(-c2nc3cccc4c3n2CCNC4=O)cc1	97.6
